Experimental data from different studies.
Numbered parts are unrelated; each lists some results of a single study. Changes are numbered by the printed parent chain.

Block 1
Target: Histone acetyltransferase KAT6A, winged helix 2, GST fusion (KAT6A, Homo sapiens, UniProt Q92794, residues 85-181)
Method: protein binding microarray
Form: double-stranded DNA, one strand shown
Sample: in vitro
Tested at: not given
Notes: 8-mer, flanks averaged, mean of 2 arrays, mostly near background
Reference: not given
Direction: higher = stronger binding
Residues (chain): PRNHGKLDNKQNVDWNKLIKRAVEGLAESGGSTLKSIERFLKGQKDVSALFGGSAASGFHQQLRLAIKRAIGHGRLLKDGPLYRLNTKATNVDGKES
Sequence | E-score
TAACGAGA | -0.0713
AACACTTA | -0.25
CGCGCTGC | 0.11
AACCGGTT | 0.0443
ACCAGTCA | -0.183
GTAGCGGA | 0.0588
CAGATGGA | 0.13
AACCAATA | 0.0687
CCGTTCCC | 0.175
CATGTATA | -0.137
CCACTTTC | -0.118
TAATAAGA | 0.17
CATAATCC | -0.161
CACGGAGG | 0.0975
GATCGCGC | 0.0402
ATTTGCAC | -0.0344
CTGTGGTA | -0.00686
ATAATGCC | 0.053
CCGGCACC | 0.197
AACACAAC | 0.0372
GAACACGC | 0.0699
ATCCGGAA | 0.126
GCGTCTTA | -0.0789
CAAACGTG | -0.176
CCCTTCGA | 0.133

Block 2
Target: Prothrombin, mature alpha-thrombin (F2, Homo sapiens, UniProt P00734)
Method: aptamer microarray, sandwich
Form: DNA with 2'F-ANA
Sample: in vitro
Tested at: 200 nM
Notes: whole 15-mer aptamer, many near background
Added: Cy3 exosite-II aptamer, 400 nM
Direction: higher = stronger binding
Sequence: GGTTGGTGTGGTTGG
Modification | mean fluorescence intensity
2'F-ANA at 2 4 5 6 9 13 | 49.9 a.u.
2'F-ANA at 2 3 4 8 9 11 12 13 | 611 a.u.
2'F-ANA at 1 4 5 7 11 12 | 88.9 a.u.
2'F-ANA at 1 3 5 6 7 9 10 13 15 | 82.2 a.u.
2'F-ANA at 1 2 4 5 6 9 12 13 15 | 85.7 a.u.
2'F-ANA at 3 5 6 8 11 | 98.7 a.u.
2'F-ANA at 1 3 4 5 6 7 9 10 11 13 14 15 | 51.3 a.u.
2'F-ANA at 1 2 4 7 10 11 12 | 53.6 a.u.
2'F-ANA at 5 6 7 8 10 12 13 15 | 50 a.u.
2'F-ANA at 1 4 7 9 11 12 15 | 201 a.u.
2'F-ANA at 4 6 12 13 14 15 | 92.6 a.u.
2'F-ANA at 3 4 13 14 | 346 a.u.
2'F-ANA at 1 2 6 8 10 12 13 15 | 79 a.u.
2'F-ANA at 1 5 7 8 10 11 13 | 50.1 a.u.
2'F-ANA at 3 4 5 6 7 9 10 11 12 13 14 | 46 a.u.
2'F-ANA at 1 5 9 12 13 | 67.6 a.u.
2'F-ANA at 3 4 5 9 13 14 | 49.6 a.u.
2'F-ANA at 1 2 4 5 7 8 12 13 | 198 a.u.
2'F-ANA at 1 2 3 4 6 | 158 a.u.
2'F-ANA at 5 10 11 12 15 | 49.4 a.u.
2'F-ANA at 1 2 3 4 5 7 8 10 11 12 13 15 | 52.8 a.u.
2'F-ANA at 1 3 6 7 9 10 13 | 79.6 a.u.
2'F-ANA at 3 4 5 8 9 10 12 | 59.5 a.u.
2'F-ANA at 6 7 11 13 15 | 333 a.u.
2'F-ANA at 2 3 4 6 7 15 | 566 a.u.

Block 3
Target: ABI1, truncated, D143A, DHFR fusion (Arabidopsis thaliana)
Method: DHFR PCA, deep sequencing
Sample: yeast
Notes: methotrexate growth selection, single substitutions
Added: (+)-ABA 4.8 µM
Reference: wild-type fitted maximum
Direction: higher = stronger binding
Starting sequence: PYL1, truncated, DHFR fusion (Arabidopsis thaliana); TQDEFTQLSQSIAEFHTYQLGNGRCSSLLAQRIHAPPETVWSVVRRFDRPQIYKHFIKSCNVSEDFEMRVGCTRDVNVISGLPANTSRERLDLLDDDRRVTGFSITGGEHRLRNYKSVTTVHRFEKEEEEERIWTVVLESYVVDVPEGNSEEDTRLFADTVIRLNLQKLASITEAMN; partner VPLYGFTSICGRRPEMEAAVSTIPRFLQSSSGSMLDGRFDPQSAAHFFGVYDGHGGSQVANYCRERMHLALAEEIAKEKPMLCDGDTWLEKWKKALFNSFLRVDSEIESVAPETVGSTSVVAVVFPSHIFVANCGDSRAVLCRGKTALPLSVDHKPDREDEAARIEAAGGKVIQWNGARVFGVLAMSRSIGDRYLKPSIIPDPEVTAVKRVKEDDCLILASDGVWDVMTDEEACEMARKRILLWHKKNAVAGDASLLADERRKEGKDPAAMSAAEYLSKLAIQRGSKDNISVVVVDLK
Substitution | relative binding score
E129A | 80.6%
L164G | 16.1%
N177T | 88.4%
D153Y | 1.32%
G71D | -1.34%
L156G | 33.8%
G23K | 62.8%
I33E | 4.25%
I12P | 2.17%
E125F | 78.5%
Y18V | 40.1%
D75L | 81.8%
E128P | 74.6%
V40Q | 16.2%
G148A | 17.8%
Q31R | 53.5%

Block 4
Target: UBE2N UBC core domain (UniProt P61088)
Method: yeast two-hybrid
Sample: yeast
Notes: mostly zero background
Reference: not given
Direction: higher = stronger interaction
B1: Ltn1 RING domain (UniProt Q6A009); chain VDKRFEGVEDCMICFSVIHGFNYSLPKKACRTCKKKFHSACLYKWFTSSNKSTCPLCRETFF
B2: DTX1 RING domain (UniProt Q86Y01); chain QKVKNPPDEDCTICMERLVTASGYEGVLRHKGVRPELVGRLGRCGHMYHLLCLVAMYSNGNKDGSLQCPTCKAIYGEKTGTQ
B3: RNF181 RING domain (UniProt Q9P0P0); chain VIRGSQAELKCPVCLLEFEEEETAIEMPCHHLFHSSCILPWLSKTNSCPLCRYELPTDDDTY
B4: RNF135 RING domain (UniProt Q8IUD6); chain PVWLAEDDLGCIICQGLLDWPATLPCGHSFCRHCLEALWGARDARRWACPTCRQGAAQQPHLR
B5: TRIM48 RING domain (UniProt Q8IWZ4); chain ISQVFQRELTCPICMNYFIDPVTIDCGHSFCRPCFYLNWQDIPILTQCFECIKTIQQRNLKT
B6: RNF24 RING domain (UniProt Q9Y225); chain KVKELNLHELCAVCLEDFKPRDELGICPCKHAFHRKCLIKWLEVRKVCPLCNMPVLQLAQLH
B7: PRKN RING domain (UniProt O60260); chain LIATNSRNITCITCTDVRSPVLVFQCNSRHVICLDCFHLYCVTRLNDRQFVHDPQLGYSLPCVAGCPNSLIKELHH
B8: TRIM22 RING domain (UniProt Q8IYM9); chain KEVKMSPQEGQKRDVCEHHGKKLQIFCKEDGKVICWVCELSQEHQGHQTFRINEVVKECQEK
B9: ZNRF3 RING domain (UniProt Q9ULT6); chain DTLSSSSTSDCAICLEKYIDGEELRVIPCTHRFHRKCVDPWLLQHHTCPHCRHNIIEQKGNP
Construct (chain): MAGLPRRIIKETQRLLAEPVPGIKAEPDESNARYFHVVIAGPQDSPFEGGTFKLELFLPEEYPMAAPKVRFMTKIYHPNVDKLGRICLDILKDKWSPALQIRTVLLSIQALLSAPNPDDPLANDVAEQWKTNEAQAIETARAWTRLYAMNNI
Molecule | lacZ reporter activity
NTAPSLTVPECAICLQTCVHPVSLPCKHVFCYLCVKGASWLGKRCALCRQEIPEDFLDK (RNF146 RING domain (UniProt Q9NTX7)) | 0
ALDRLEKLLRCSRCTNILREPVCLGGCEHIFCSNCVSDCIGTGCPVCYTPAWIQDLKI (BARD1 RING domain (UniProt Q99728)) | 0
B1 (Ltn1 RING domain) | 0
B2 (DTX1 RING domain) | 4100
B3 (RNF181 RING domain) | 0
B4 (RNF135 RING domain) | 0
MDDQGCPRCKTTKYRNPSLKLMVNVCGHTLCESCVDLLFVRGAGNCPECGTPLRKSNFRV (MNAT1 RING domain (UniProt P51948)) | 0
B5 (TRIM48 RING domain) | 0
B6 (RNF24 RING domain) | 0
B7 (PRKN RING domain) | 0
KEQLEKHNDICAICYQDMKSAVITPCSHFFHAGCLKKWLYVQETCPLCHCHLKNSSQLP (RNF145 RING domain (UniProt Q96MT1)) | 0
KLWDINAHITCRLCSGYLIDATTVTECLHTFCRSCLVKYLEENNTCPTCRIVIHQSHPLQ (PCGF3 RING domain (UniProt Q3KNV8)) | 0
B8 (TRIM22 RING domain) | 0
B9 (ZNRF3 RING domain) | 9670
KITELNPHLMCVLCGGYFIDATTIIECLHSFCKTCIVRYLETSKYCPICDVQVHKTRPLL (BMI1 RING domain (UniProt P35226)) | 0
QLRRLQEERTCKVCLDRAVSIVFVPCGHLVCAECAPGLQLCPICRAPVRSRVRTF (BIRC7 RING domain (UniProt Q96CA5)) | 0

Other studies, line by line
Method: two-hybrid
Reference: out of 4 tests
Direction: higher = firmer interaction
T1: itself; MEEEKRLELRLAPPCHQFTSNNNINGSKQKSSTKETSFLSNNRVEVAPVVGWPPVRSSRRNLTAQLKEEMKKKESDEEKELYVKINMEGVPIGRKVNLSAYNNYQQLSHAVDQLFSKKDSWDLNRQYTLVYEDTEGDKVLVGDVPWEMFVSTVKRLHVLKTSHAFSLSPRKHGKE
T2: itself; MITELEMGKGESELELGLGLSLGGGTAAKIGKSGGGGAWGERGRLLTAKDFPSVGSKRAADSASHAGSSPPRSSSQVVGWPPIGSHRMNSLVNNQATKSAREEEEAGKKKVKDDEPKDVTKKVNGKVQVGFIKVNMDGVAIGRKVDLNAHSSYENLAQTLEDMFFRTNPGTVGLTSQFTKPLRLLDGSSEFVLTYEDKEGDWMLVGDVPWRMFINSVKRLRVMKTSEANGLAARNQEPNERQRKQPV
T3: itself; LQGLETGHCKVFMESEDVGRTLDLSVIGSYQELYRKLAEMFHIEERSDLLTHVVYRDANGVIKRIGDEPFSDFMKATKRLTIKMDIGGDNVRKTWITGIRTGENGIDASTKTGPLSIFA
T4: itself; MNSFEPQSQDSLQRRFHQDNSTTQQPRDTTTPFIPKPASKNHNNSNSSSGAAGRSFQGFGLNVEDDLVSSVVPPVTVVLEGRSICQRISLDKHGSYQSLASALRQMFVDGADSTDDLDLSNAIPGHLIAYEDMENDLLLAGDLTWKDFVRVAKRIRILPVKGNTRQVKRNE
B10: IAA28 (Arabidopsis thaliana, UniProt Q9XFM0); chain MEEEKRLELRLAPPCHQFTSNNNINGSKQKSSTKETSFLSNNRVEVAPVVGWPPVRSSRRNLTAQLKEEMKKKESDEEKELYVKINMEGVPIGRKVNLSAYNNYQQLSHAVDQLFSKKDSWDLNRQYTLVYEDTEGDKVLVGDVPWEMFVSTVKRLHVLKTSHAFSLSPRKHGKE
B11: IAA13 (Arabidopsis thaliana, UniProt Q38831); chain MITELEMGKGESELELGLGLSLGGGTAAKIGKSGGGGAWGERGRLLTAKDFPSVGSKRAADSASHAGSSPPRSSSQVVGWPPIGSHRMNSLVNNQATKSAREEEEAGKKKVKDDEPKDVTKKVNGKVQVGFIKVNMDGVAIGRKVDLNAHSSYENLAQTLEDMFFRTNPGTVGLTSQFTKPLRLLDGSSEFVLTYEDKEGDWMLVGDVPWRMFINSVKRLRVMKTSEANGLAARNQEPNERQRKQPV
B12: ARF10 575-693 (Arabidopsis thaliana, UniProt Q9SKN5); chain LQGLETGHCKVFMESEDVGRTLDLSVIGSYQELYRKLAEMFHIEERSDLLTHVVYRDANGVIKRIGDEPFSDFMKATKRLTIKMDIGGDNVRKTWITGIRTGENGIDASTKTGPLSIFA
B13: IAA33 (Arabidopsis thaliana, UniProt Q9FKM7); chain MNSFEPQSQDSLQRRFHQDNSTTQQPRDTTTPFIPKPASKNHNNSNSSSGAAGRSFQGFGLNVEDDLVSSVVPPVTVVLEGRSICQRISLDKHGSYQSLASALRQMFVDGADSTDDLDLSNAIPGHLIAYEDMENDLLLAGDLTWKDFVRVAKRIRILPVKGNTRQVKRNE
Molecule | partner | positive tests
B10 (IAA28) | T1, itself | 1
B11 (IAA13) | T2, itself | 0
B12 (ARF10 575-693) | T3, itself | 0
B13 (IAA33) | T4, itself | 1

For quick reference, copied from above (block 2):
Modification | mean fluorescence intensity
2'F-ANA at 3 4 5 6 7 9 10 11 12 13 14 | 46 a.u.
2'F-ANA at 3 4 5 8 9 10 12 | 59.5 a.u.
2'F-ANA at 5 6 7 8 10 12 13 15 | 50 a.u.
2'F-ANA at 1 3 5 6 7 9 10 13 15 | 82.2 a.u.
2'F-ANA at 6 7 11 13 15 | 333 a.u.
2'F-ANA at 3 4 13 14 | 346 a.u.
2'F-ANA at 1 2 4 7 10 11 12 | 53.6 a.u.
2'F-ANA at 1 3 4 5 6 7 9 10 11 13 14 15 | 51.3 a.u.
2'F-ANA at 4 6 12 13 14 15 | 92.6 a.u.
2'F-ANA at 2 3 4 8 9 11 12 13 | 611 a.u.
2'F-ANA at 3 5 6 8 11 | 98.7 a.u.
2'F-ANA at 1 2 6 8 10 12 13 15 | 79 a.u.
2'F-ANA at 1 5 7 8 10 11 13 | 50.1 a.u.
